Results from different studies.
Compare with care: the assays were run in different laboratories. Values joined by “and” are separate records of one study, mostly repeats; a detail may differ. Numbers after ± are the reported error.
Sequence of UniProt Q96LA9 (whole entry, looked up): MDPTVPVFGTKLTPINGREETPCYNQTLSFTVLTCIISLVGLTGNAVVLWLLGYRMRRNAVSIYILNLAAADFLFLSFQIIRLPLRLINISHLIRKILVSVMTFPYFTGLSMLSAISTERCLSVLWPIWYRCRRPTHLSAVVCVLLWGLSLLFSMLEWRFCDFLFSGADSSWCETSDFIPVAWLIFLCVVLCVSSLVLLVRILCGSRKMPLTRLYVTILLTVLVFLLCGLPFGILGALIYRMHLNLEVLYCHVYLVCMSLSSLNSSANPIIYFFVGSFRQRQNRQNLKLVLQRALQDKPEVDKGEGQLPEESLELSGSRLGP
Sequence of UniProt P37288 (whole entry, looked up): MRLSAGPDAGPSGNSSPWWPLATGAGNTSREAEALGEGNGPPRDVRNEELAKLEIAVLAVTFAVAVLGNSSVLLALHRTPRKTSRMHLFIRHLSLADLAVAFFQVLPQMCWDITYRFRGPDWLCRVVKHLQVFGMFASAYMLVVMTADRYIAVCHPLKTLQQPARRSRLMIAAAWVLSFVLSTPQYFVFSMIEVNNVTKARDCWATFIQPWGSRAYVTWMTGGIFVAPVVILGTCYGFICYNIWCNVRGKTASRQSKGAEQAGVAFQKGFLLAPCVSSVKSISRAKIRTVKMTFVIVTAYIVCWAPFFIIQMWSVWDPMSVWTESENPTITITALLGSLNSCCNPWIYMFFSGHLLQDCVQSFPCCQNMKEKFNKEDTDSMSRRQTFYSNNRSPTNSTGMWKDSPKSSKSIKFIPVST
Sequence of UniProt Q96PY6 (whole entry, looked up): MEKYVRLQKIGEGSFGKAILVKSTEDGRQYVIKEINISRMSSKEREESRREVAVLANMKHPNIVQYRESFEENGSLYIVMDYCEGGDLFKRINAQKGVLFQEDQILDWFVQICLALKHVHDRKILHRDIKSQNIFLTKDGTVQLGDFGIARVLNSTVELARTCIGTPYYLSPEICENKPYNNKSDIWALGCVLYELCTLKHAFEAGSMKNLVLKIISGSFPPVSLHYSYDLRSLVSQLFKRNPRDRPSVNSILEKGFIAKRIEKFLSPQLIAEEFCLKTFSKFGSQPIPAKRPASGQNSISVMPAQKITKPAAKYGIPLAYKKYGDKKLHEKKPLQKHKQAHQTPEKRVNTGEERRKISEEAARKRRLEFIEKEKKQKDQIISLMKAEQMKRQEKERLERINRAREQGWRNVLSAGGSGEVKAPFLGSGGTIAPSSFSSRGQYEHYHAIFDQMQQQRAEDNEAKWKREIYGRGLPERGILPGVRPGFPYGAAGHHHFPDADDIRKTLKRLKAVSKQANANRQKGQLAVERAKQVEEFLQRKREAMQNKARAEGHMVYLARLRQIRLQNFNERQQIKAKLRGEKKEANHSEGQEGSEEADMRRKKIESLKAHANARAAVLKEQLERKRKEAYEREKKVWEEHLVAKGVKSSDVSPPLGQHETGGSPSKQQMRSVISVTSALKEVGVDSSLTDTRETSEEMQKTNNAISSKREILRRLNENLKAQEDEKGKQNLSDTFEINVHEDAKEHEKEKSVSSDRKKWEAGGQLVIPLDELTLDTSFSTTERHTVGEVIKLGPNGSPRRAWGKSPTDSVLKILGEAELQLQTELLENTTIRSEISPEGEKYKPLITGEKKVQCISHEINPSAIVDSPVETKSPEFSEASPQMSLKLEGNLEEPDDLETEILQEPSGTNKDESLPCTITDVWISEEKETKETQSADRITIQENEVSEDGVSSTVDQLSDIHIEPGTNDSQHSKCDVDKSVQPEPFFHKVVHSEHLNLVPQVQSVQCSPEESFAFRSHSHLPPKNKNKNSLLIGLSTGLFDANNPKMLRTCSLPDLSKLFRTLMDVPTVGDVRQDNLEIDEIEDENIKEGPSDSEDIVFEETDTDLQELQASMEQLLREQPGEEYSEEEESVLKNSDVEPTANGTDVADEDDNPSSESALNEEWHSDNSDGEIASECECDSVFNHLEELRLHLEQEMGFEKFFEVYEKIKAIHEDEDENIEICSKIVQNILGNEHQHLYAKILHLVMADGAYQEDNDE

| Structure (SMILES) | tested on | assay | test system | setting | scale | measurement | result |
| --- | --- | --- | --- | --- | --- | --- | --- |
| CC(C)(C)[C@H](NC(=O)C(F)(F)F)C(=O)N1C[C@H]2[C@@H]([C@H]1C(=O)N[C@H](C#N)C[C@@H]1CCNC1=O)C2(C)C | – | – | rat hepatocytes | scaled to liver | – | intrinsic clearance | 26.5 mL/min/kg |
| CCCc1cc(O)c2c(c1)OC(C)(C)[C@@H]1CCC(C)=C[C@@H]21 | – | LC-MS/MS | Scn1a+/− mice, both sexes, plasma | intraperitoneal, 10 mg/kg, after hyperthermia protocol | – | plasma concentration | 352 ± 28 ng/mL |
| CN1CC[C@@H](c2c(O)cc(O)c3c(=O)cc(-c4ccc(C(F)(F)F)cc4Cl)oc23)[C@@H]1CO | – | refers to: Lymphopenia | relapsed B-cell malignancies | oral, 150 mg, grade 3-4, intermittent dosing | – | patients with adverse event | 0% |
| CC[C@H](C)[C@H](NC(=O)[C@H](Cc1ccccc1)NC(=O)[C@H](CCC(=O)O)NC(=O)[C@H](CCCNC(=N)N)NC(=O)[C@H](C)NC(=O)[C@H](C)NC(=O)[C@H](CCC(N)=O)NC(=O)[C@H](CCC(=O)O)NC(=O)[C@H](CCC(=O)O)NC(=O)[C@H](CC(C)C)NC(=O)[C@H](Cc1ccc(O)cc1)NC(=O)[C@H](CO)NC(=O)[C@H](CO)NC(=O)[C@@H](NC(=O)[C@H](CC(=O)O)NC(=O)[C@H](CO)NC(=O)[C@@H](NC(=O)[C@H](Cc1ccccc1)NC(=O)[C@@H](NC(=O)CNC(=O)[C@H](CCC(=O)O)NC(=O)[C@H](C)NC(=O)CCc1c[nH]cn1)[C@@H](C)O)[C@@H](C)O)C(C)C)C(=O)N[C@@H](C)C(=O)N[C@@H](Cc1c[nH]c2ccccc12)C(=O)N[C@@H](CC(C)C)C(=O)N[C@H](C(=O)N[C@@H](CCCNC(=N)N)C(=O)NCC(=O)N[C@@H](CCCNC(=N)N)C(=O)N[C@@H](CCCCNC(=O)COCCOCCNC(=O)COCCOCCNC(=O)CC[C@H](NC(=O)CCCCCCCCCCCCCCCCC(=O)O)C(=O)O)C(=O)NCC(=O)NCC(=O)N[C@@H](CO)C(=O)N[C@@H](CCCCNc1c(NCCCCCN(O)C(=O)CCC(=O)NCCCCCN(O)C(=O)CCC(=O)NCCCCCN(O)C(C)=O)c(=O)c1=O)C(=O)O)C(C)C [zirconium-89 labelled] | – | – | rat, lung | sc, 3 nmol/kg, 72 h, ex vivo | – | tissue uptake | 0.85 %ID/g |
| Cc1ncc2n1-c1ccc(Cl)cc1C(c1ccccc1F)=NC2 | – | rapid equilibrium dialysis | rat, 10% plasma | 2 µM, 24 h, pH 7.4 | – | fraction unbound | 0.034 |
| CNC(C)Cc1ccc2c(c1)OCO2 (stereo not shown) | – | rapid equilibrium dialysis | human plasma | 250 ng/mL | – | fraction unbound | 0.793 |
| COc1cc2c(Oc3ccc4[nH]c(C)cc4c3F)ccnc2cc1OCC1(N)CC1 | – | – | paediatric recurrent refractory sarcoma | 12 mg | – | grade 1 or 2 influenza-like symptoms | 9.1% |
| Oc1ccc2c3c1O[C@H]1[C@@H](O)CC[C@@]4(O)[C@@H](C2)N(CC2CCC2)CC[C@]314 | Mas-related G-protein coupled receptor member X4 (Homo sapiens, UniProt Q96LA9) | β-arrestin recruitment, TANGO luminescence, refers to: MRGPRX4 | – | concentration not given | reference: basal luminescence | log2 fold change | -0.308 |
| C[C@]1(CO)Cc2ncn(-c3ccc(C#N)c(Cl)c3)c2C(=O)O1 | – | – | human | 0.7 mg single dose | – | subjects with severe TEAEs | 0% |
| CCN(CC)CCOc1ccc2c(c1)C(=O)c1cc(OCCN(CC)CC)ccc1-2 | – | – | human cells | 48 (unit not given) | – | CC50 | 19.9 µM |
| CCN(CC)C(=O)[C@@H]1C=C2c3cccc4[nH]cc(c34)C[C@H]2N(C)C1 | – | refers to: abdominal pressure or fullness | healthy volunteers | dose not given, 12 to 24 h | reference: placebo, direction not given | List of Complaints score | 1 |
| NC(=O)c1ncn([C@@H]2O[C@H](CO)[C@@H](O)[C@H]2O)n1 | – | – | bovine cells | – | – | CC50 | 8 µM |
| C#Cc1ccc2c(c1)C(c1ccccn1)=NCc1c(-c3cnco3)ncn1-2.Cl | – | shake flask | 50 mM phosphate buffer | 24 h, pH 6, 25 °C | – | solubility | 3090 µg/mL |
| COc1ccc2c(c1)[C@]13CCCC[C@@H]1[C@H](C2)N(C)CC3 | – | – | C57BL/6 mice, plasma | oral, 50 µg/g, 60 min | – | plasma concentration | 189 ng/mL and 611 ng/mL and 175 ng/mL and 444 ng/mL and 221 ng/mL |
| O=C(O)c1cn(Cc2cccc(Cl)c2)c2ccccc12 | – | – | F344 rat, male, serum | oral, 150 mg/kg/day, 2 days, group mean | – | alkaline phosphatase | 248 U/L |
| C[C@H]1CN(c2n[nH]c3nc(N[C@H]4CC[C@H](NS(=O)(=O)CCC(F)(F)F)CC4)ncc23)CCO1 | Serine/threonine-protein kinase Nek1 (NEK1, Homo sapiens, UniProt Q96PY6) | inhibitor, Kinobeads competition profiling | – | 0.8 µM | reference: vehicle | relative abundance | 1.01 |
| COc1cc(Nc2ncc(F)c(Nc3ccc4c(n3)NC(=O)C(C)(C)O4)n2)cc(OC)c1OC | Vasopressin V1a receptor (AVPR1A, Homo sapiens, UniProt P37288) | – | – | – | – | IC50 | > 10 µM |
| CC[C@H](C)[C@@H]1NC(=O)[C@@H]2CCCN2C(=O)[C@H](CC(C)C)NC(=O)[C@H](CC(C)C)NC(=O)CNC(=O)[C@@H](NC(=O)[C@@H](NC(=O)[C@H](CC(=O)O)NC(=O)CNC(=O)[C@@H](NC(=O)[C@H](C)NC(=O)CNC(=O)[C@H](CCCCN)NC(=O)[C@H](CC(C)C)NC(=O)[C@H](CC(C)C)NC(=O)[C@H](CCCCN)NC(=O)CNC(=O)[C@@H](NC(=O)[C@@H](N)CC(C)C)C(C)C)C(C)C)C(C)C)CSSC[C@@H](C(=O)O)NC1=O | – | RNA-seq, refers to: Pstpip1 | mouse, traumatic brain injury model, frontal cortex and hippocampus | dose not given | reference: TBI alone | log2 fold change | -1.95 |
| NC(=O)c1nc(F)c[nH]c1=O | – | – | dog cells | – | – | CC50 | > 400 µM |
| CCCCCCCCCCC(=O)O[C@H]1CC[C@H]2[C@@H]3CCC4=CC(=O)CC[C@]4(C)[C@H]3CC[C@]12C | – | – | human male serum | 500 ng/mL, NaF 0.00 mg/mL, baseline testosterone 441 ng/dL | – | testosterone level | 442 ng/dL |
| O=C(O)CCC(CP(=O)(O)O)C(=O)O (stereo not shown) | – | – | Wistar rat, male, plasma | ip, 100 mg/kg | – | AUC(0-last) | 207 µg·h/mL |
| CNC(=O)c1c(N(C)N=O)ncn1C | Escherichia coli | plate incorporation | WP2uvrA pKM101, water | 150 µg/plate, without S9 | – | revertant colonies per plate | 117 ± 12 |
| CO[C@H]1C[C@@H]2CC[C@@H](C)[C@@](O)(O2)C(=O)C(=O)N2CCCC[C@H]2C(=O)O[C@H]([C@H](C)C[C@@H]2CC[C@@H](OC(=O)NCCOCCOCCOCCOCCOCCOCCOCCOCCC(=O)N3CCc4cc(Cn5nc(-c6ccc7oc(N)nc7c6)c6c(N)ncnc65)ccc4C3)[C@H](OC)C2)C[C@@H](O)[C@H](C)/C=C(\C)[C@@H](O)[C@@H](OC)C(=O)[C@H](C)C[C@H](C)/C=C/C=C/C=C/1C | – | phase 1 dose escalation | advanced solid tumour patients | intravenous, 8 mg weekly, any grade | – | deaths due to TRAEs | 0% |
| C[C@H]1CN(C(=O)CC#N)[C@]12CCN(c1ncnc3[nH]ccc13)C2 | – | – | healthy human | oral, 3 mg single | – | subjects with influenza-like illness | 12.5% |
| COc1ccc2c(c1)[C@]13CCCC[C@@H]1[C@H](C2)N(C)CC3 | – | – | human female | dose not given, day 22 | reference: day 0 | AUC change | -5.6% |
| O=C1c2c(O)c(=O)ccn2N([C@@H]2c3ccccc3SCc3c2ccc(F)c3F)[C@@H]2COCCN12 | – | – | dog cells | – | – | CC50 | 7.1 µM |
| Cc1ncc2n1-c1ccc(Cl)cc1C(c1ccccc1F)=NC2 | – | – | healthy human volunteers, plasma | oral, dose not given, CYP3A probe substrate, added: momelotinib | reference: compound alone | AUCinf ratio | 83.8% |
| O=C1c2c(O)c(=O)ccn2N([C@@H]2c3ccccc3SCc3c2ccc(F)c3F)[C@@H]2COCCN12 | – | – | BALB/c mouse, plasma | oral, 5 mg/kg baloxavir marboxil every 12 h, 24 h | – | plasma concentration | 5.02 ng/mL |

Repeated from above:
| Structure (SMILES) | tested on | assay | test system | setting | scale | measurement | result |
| --- | --- | --- | --- | --- | --- | --- | --- |
| COc1ccc2c(c1)[C@]13CCCC[C@@H]1[C@H](C2)N(C)CC3 | – | – | human female | dose not given, day 22 | reference: day 0 | AUC change | -5.6% |
| O=C1c2c(O)c(=O)ccn2N([C@@H]2c3ccccc3SCc3c2ccc(F)c3F)[C@@H]2COCCN12 | – | – | dog cells | – | – | CC50 | 7.1 µM |
| Cc1ncc2n1-c1ccc(Cl)cc1C(c1ccccc1F)=NC2 | – | – | healthy human volunteers, plasma | oral, dose not given, CYP3A probe substrate, added: momelotinib | reference: compound alone | AUCinf ratio | 83.8% |
| O=C1c2c(O)c(=O)ccn2N([C@@H]2c3ccccc3SCc3c2ccc(F)c3F)[C@@H]2COCCN12 | – | – | BALB/c mouse, plasma | oral, 5 mg/kg baloxavir marboxil every 12 h, 24 h | – | plasma concentration | 5.02 ng/mL |
